Measured values pooled from the literature.
Protocols differ between the studies behind these lines. ± gives the spread as reported. Converted amounts (≈) assume the structure as drawn.
USP49 ZnF-UBD domain: Ubiquitin carboxyl-terminal hydrolase 49, ZnF-UBD domain (USP49, Homo sapiens, UniProt Q70CQ1)
Chain of UniProt Q70CQ1 (whole entry, looked up): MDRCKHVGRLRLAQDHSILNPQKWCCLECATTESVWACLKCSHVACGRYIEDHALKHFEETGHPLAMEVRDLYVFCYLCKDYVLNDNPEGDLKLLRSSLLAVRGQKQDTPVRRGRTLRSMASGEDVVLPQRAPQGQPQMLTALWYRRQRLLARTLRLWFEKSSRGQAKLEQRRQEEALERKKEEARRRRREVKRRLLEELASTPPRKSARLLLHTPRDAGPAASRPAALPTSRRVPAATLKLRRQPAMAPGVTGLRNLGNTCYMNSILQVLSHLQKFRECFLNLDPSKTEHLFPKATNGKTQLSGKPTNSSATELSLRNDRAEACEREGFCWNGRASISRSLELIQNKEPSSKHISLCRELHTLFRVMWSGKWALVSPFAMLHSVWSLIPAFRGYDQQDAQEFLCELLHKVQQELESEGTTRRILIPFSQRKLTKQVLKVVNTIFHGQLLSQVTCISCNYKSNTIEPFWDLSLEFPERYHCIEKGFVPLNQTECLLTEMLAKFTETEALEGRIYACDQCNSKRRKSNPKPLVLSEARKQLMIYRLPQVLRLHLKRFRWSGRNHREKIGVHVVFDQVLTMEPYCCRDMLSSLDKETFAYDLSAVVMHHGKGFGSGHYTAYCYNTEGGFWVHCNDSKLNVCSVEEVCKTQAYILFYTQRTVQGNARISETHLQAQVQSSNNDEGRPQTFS

Under “subjects with thrombophlebitis TEAE”, CC(C)(C(=O)N1CCOc2c(C#N)cncc2C1)C(F)F is recorded as 0% (human, both sexes; oral, 10 mg single dose).
[O]=[Co].[O]=[Co][O][Co]=[O] has a cobalt concentration of 5160 µg/L (rat, female, urine, 24-h collection; oral gavage, single, 300 mg/kg (220 mg Co/kg), day 1, vehicle 0.5% HPMC).
The logD of CCOC(=O)N1C[C@@H](c2cc(F)c(O)c(F)c2)N[C@@H](c2ccc([C@H](C)CC)cc2)C1 is reported as greater than 4.7 (shake-flask, 1-octanol/buffer; pH 7.4).
Under “urinary chloride excretion change”, Cc1ccc([C@@H]2O[C@H](CO)[C@@H](O)[C@H](O)[C@H]2O)cc1Cc1ccc(-c2ccc(F)cc2)s1 is recorded as 38 mEq (Japanese type 2 diabetes patients; 200 mg, day 1, 24 h urine collection; relative to: baseline).
With C=CCn1c(=O)c2cnc(Nc3ccc(N4CCN(C)CC4)cc3)nc2n1-c1ccc2c(n1)[C@@](O)(CC)CC2 the AUC(0-24) was 29100 ng·h/mL (female NOD/SCID mouse OVCAR-3 xenograft, plasma; oral, 80 mg/kg once daily, :2).
CN(C)C/C=C/C(=O)Nc1cc2c(Nc3ccc(F)c(Cl)c3)ncnc2cc1O[C@H]1CCOC1: “cysteine adduct formation” 98% (PBS; 100 µM, 23 h, pH 7.45, 37 °C, added: cysteine 10 mM).
The CLint of OCc1nc2ccc(NCc3ccc(C(F)(F)F)cc3)cc2[nH]1 is reported as 3.6 µL/min/mg (human liver S9; 1 µM, pH 7.4).
The Kd of O=C(O)CCc1cnccn1 is reported as greater than 1000 µM (USP49 ZnF-UBD domain).
The solubility of CNC(=O)c1ccccc1Nc1cc(Nc2ccc(N3CCOCC3)cc2OC)ncc1C(F)(F)F is reported as 3600 µg/mL (≈ 7.18 mM) (aqueous buffer; 24 h, pH 1.2).
The Nasopharyngitis incidence of C[C@@H]1COCCN1c1cc(C2([S@](C)(=N)=O)CC2)nc(-c2cc[nH]c3nccc2-3)n1 is reported as 0% (Japanese advanced solid tumour patients; oral, 240 mg twice daily, CTCAE grade ≥3).
The Cmax of COc1ncc(-c2nc3c(n2C(C)C)[C@H](c2ccc(Cl)cc2)N(c2cc(Cl)cn(C)c2=O)C3=O)c(OC)n1 is reported as 52.2 ng/mL (LC-MS/MS; human, plasma; oral, 7.5 mg, cycle 1 day 14, low-dose arm).
CCCS(=O)(=O)Nc1ccc(F)c(C(=O)c2c[nH]c3ncc(-c4ccc(Cl)cc4)cc23)c1F — result for “Vmax of saturable absorption”: 3500 kg/µg/h (one-compartment model; tumour-bearing xenograft mouse, plasma; oral).
CCOc1c([C@H](C)n2nc(C)c3c(N)ncnc32)cc(Cl)c(F)c1[C@@H]1CNC(=O)C1 — result for “share of patients”: 0% (refers to: QTcF > 500 ms; previously treated B-cell malignancy; oral, dose not given, all doses, overall population).
For Cc1cc(-c2nccc3c2ccn3CC(=O)Nc2ccc(-c3cnccn3)cn2)ccn1, “subjects with gastrointestinal disorders” read 0% (human; 20 mg once daily, multiple ascending dose).
With O=c1cc(-c2ccc(O)cc2)oc2c([C@@H]3OC[C@H](O)[C@H](O)[C@H]3O)c(O)c([C@@H]3O[C@H](CO)[C@@H](O)[C@H](O)[C@H]3O)c(O)c12 the tissue concentration was 0.23 ng/g (UHPLC-MS/MS; C57BL/6J mouse, spleen; oral, dose not given).
For c1ccc2c(c1)ccc1ccccc12, the log K(PDMS-water) was 3.77 ± 0.02 (fresh water; 12 (unit not given), 20 °C, SSP sampler, 100 µm).
For Fc1ccc([C@@H]2COC[C@H](c3ccc4c(c3)OCCO4)N2)c2ccccc12, the logD was greater than 4.7 (shake-flask, 1-octanol/buffer; pH 7.4).
C[C@@]1(c2cc(NC(=O)c3ccc(C#N)cn3)ccc2F)C=CSC(N)=N1 has a dose-normalised AUC(0-inf) of 86.3 ng·h/mL (elderly humans, both sexes, plasma; oral, 3 mg single dose).
O=[N+]([O-])c1ccc2c(c1)S(=O)(=O)C=C2 — result for “conversion to thiol conjugate”: greater than 95% (PBS; 50 µM, 24 h, pH 7.4, 37 °C, added: equimolar thiol).
With Clc1ccc([C@H]2COC[C@@H](c3ccc(-c4ccccn4)cc3)N2)cc1 the logD was greater than 4.7 (shake-flask, 1-octanol/buffer; pH 7.4).
OC[C@H]1O[C@@H](c2ccc(Cl)c(Cc3ccc(O[C@H]4CCOC4)cc3)c2)[C@H](O)[C@@H](O)[C@@H]1O: “change in Sodium” 1 mEq/L (Japanese type 1 diabetes patients, blood; 25 mg, day 28; relative to: baseline).
The efflux ratio of CC(C)c1nc(N(C)S(C)(=O)=O)nc(-c2ccc(F)cc2)c1/C=C/[C@@H](O)C[C@@H](O)CC(=O)O is reported as 10.3 (EpiIntestinal microtissues; 5 µM, 2 h, no inhibitor).
N#Cc1ccc2c(c1)[C@H]1CCCN(C(=O)c3ccc4[nH]cnc4c3)[C@H]1C2 has a DHEA-S level of 7.2 µmol/L (human, female; 40 mg, day 15).
CCCCOc1nc(N)c2c(n1)N(Cc1cccc(CN3CCCC3)c1)CC(=O)N2 — result for “grade 1 TEAE”: 6.7% (human; oral, 2 mg, drug interaction trial).
CCOC(=O)N1C[C@@H](C2CCN(C(=O)OCc3ccccc3)CC2)N[C@@H](C(CC)CC)C1 has a logD of greater than 4.7 (shake-flask, 1-octanol/buffer; pH 7.4).
With O=C(O)CNC(=O)c1ccc(C(=O)N2CCC(c3ccc(Cl)cc3)CC2)cn1 the Kd was greater than 1000 µM (USP49 ZnF-UBD domain).
C=CC(=O)NC1CCN(c2ncc3ncnc(Nc4ccc(Oc5ccc6c(c5)ncn6C)c(C)c4)c3n2)CC1 — result for “subjects with adverse events”: 29% (healthy male volunteers; intravenous then oral, dose not given, 1 week, oral 2 h after infusion).
CN(C(=O)n1cnc(-c2ccc[n+]([O-])c2)c1)[C@H]1CC[C@H](O)CC1 has a concentration of 10.6 ± 1.2 ng/g (Wistar rat, pons; oral, 10 mg/kg of BIA 10-2474, 1 h, single dose).
COc1ccc2c(c1)CN(C(=O)CCN1CCC(Cc3ccccc3)CC1)CC[S@@+]2[O-] gave a PQ interval of 91 ± 5 ms (telemetry; conscious male beagle dogs; intravenous, 4 mg/kg, 4 h).
For CCN1/C(=C/C(C)=O)Sc2ccc(F)cc21, the QT interval was 233 ± 15 ms (cynomolgus monkey; oral, 100 mg/kg, 1 h post-dose).
The intact complex of O=C(O)CN1CCCN2CCN(Cc3ccccc3)CCCN(CC1)Cc1cccc(n1)C2 is reported as 98% (64Cu complex; 2 h, 70 °C, added: DOTA excess).
C[C@@H]1CCO[C@H]2Cn3cc(C(=O)NCc4ccc(F)cc4F)c(=O)c(O)c3C(=O)N12 has an AUC(0-24) of 77100 ng·h/mL (population PK, post-hoc; infants aged ≥1 months, 3 to <6 kg, plasma; oral, 10 mg dispersible tablet, steady state, geometric mean).
C/C=C/C[C@@H](C)C(=O)[C@H]1C(=O)N[C@@H](C(C)C)C(=O)N(C)CC(=O)N(C)[C@@H](CC(C)C)C(=O)N[C@@H](C(C)C)C(=O)N(C)[C@@H](CC(C)C)C(=O)N[C@@H](C)C(=O)N[C@H](C)C(=O)N(C)[C@@H](CC(C)C)C(=O)N(C)[C@@H](CC(C)C)C(=O)N(C)[C@@H](C(C)C)C(=O)N1C — result for “total plasma concentration”: 12200 ng/mL (Sprague Dawley rat, plasma; intravenous infusion, 2.67 mg/h/kg, 4 h, 4.5 h constant infusion).
The logD of CN1CCN(C(=O)CN(C)S(=O)(=O)c2ccc3ccccc3c2)CC1 is reported as 1.8 (octanol/buffer; pH 7.4).
C=CC(=O)N1CCC(c2ccc(C(N)=O)c(-c3ccc(Oc4ccccc4)cc3)n2)CC1 gave an incidence of 0.9% (serious adverse event Hypoglycemia; patients with relapsed/refractory MCL; oral).
With C=CC(=O)N(C)CCOc1c(N)ncnc1-c1cc(F)cc(NC(=O)c2ccc(C3CC3)cc2F)c1C the AUC was 4.94 ng·h/mL (human, whole blood; oral, 10 mg once daily, day 1).
For CC[C@H](C)CCCCC(=O)N[C@@H](CCN)C(=O)N[C@H](C(=O)N[C@@H](CCN)C(=O)N[C@H]1CCNC(=O)[C@H]([C@@H](C)O)NC(=O)[C@H](CCN)NC(=O)[C@H](CCN)NC(=O)[C@H](CC(C)C)NC(=O)[C@@H](Cc2ccccc2)NC(=O)[C@H](CCN)NC1=O)[C@@H](C)O, “cumulative urinary excretion” read 0.884 mg (normal renal function subjects, urine; IV, 0.75 mg/kg, 0-12 h, arithmetic mean).
With C[C@@H](O)[C@H](NC(=O)c1ccc(C#Cc2ccccc2)cc1)C(=O)NCC1(C)NC(=O)NC1=O (stereo partly shown) the logD was 2.72 (octanol/buffer; pH 7.4).
CC[C@@H]([C@H](C)O)n1ncn(-c2ccc(N3CCN(c4ccc(OC[C@@H]5CO[C@@](Cn6cncn6)(c6ccc(F)cc6F)C5)cc4)CC3)cc2)c1=O: “stability relative error” -7.4% (rat plasma; 2 ng/mL, 3 h, room temperature; relative to: nominal concentration).
Cc1ccc(C(=O)N(CCCN)C(c2nc3snc(C)c3c(=O)n2Cc2ccccc2)C(C)C)cc1 (stereo not shown): “grade ≥3 fatigue patients” 0% (human patients; intravenous, 13 mg/day).
CN1CCN(C(=O)c2ccccc2N(Cc2ccccc2)S(C)(=O)=O)CC1 has a logD of 1.37 (octanol/buffer; pH 7.4).
CCC(CC)[C@H]1COC[C@@H](c2ccc(C(C)(C)C)cc2)N1 gave a logD of greater than 4.7 (shake-flask, 1-octanol/buffer; pH 7.4).
Under “likelihood of grade >=3 AE”, NC1(C(=O)N[C@@H](CCO)c2ccc(Cl)cc2)CCN(c2nc[nH]c3nccc2-3)CC1 is recorded as 56.7% (human patients aged >=sample A years; 400 mg).
CO[C@@H]1[C@H](OC(=O)N2CC(CCN3CCOCC3)C2)CC[C@]2(CO2)[C@H]1[C@@]1(C)O[C@@H]1CC=C(C)C — result for “diastolic blood pressure”: 0 ± 8.5 mmHg (humans; subcutaneous, 1.8 mg twice weekly for 4 weeks, day 28; relative to: baseline).
For FC(F)(F)c1ccc(CNc2ccc(Cc3c[nH]c4ncc(Cl)cc34)cn2)cn1, “treatment-related adverse events” read 0% (refers to: Dyspepsia; patients with advanced solid tumours, non-TGCT cohort; oral, 1000 mg/day, grade 3 or higher).
CN(CCC(=O)O)C(=O)c1ccc2c(c1)CC[C@@H]1[C@@H]2CC[C@]2(C)C(c3cncc(F)c3)=CC[C@@H]12: “total bilirubin change” 0.682 mg/dL (premenopausal women, endometriosis pain, serum; 60 mg twice daily, visit 6, mean; relative to: baseline).

Some of these lines once more:
The Nasopharyngitis incidence of C[C@@H]1COCCN1c1cc(C2([S@](C)(=N)=O)CC2)nc(-c2cc[nH]c3nccc2-3)n1 is reported as 0% (Japanese advanced solid tumour patients; oral, 240 mg twice daily, CTCAE grade ≥3).
The Cmax of COc1ncc(-c2nc3c(n2C(C)C)[C@H](c2ccc(Cl)cc2)N(c2cc(Cl)cn(C)c2=O)C3=O)c(OC)n1 is reported as 52.2 ng/mL (LC-MS/MS; human, plasma; oral, 7.5 mg, cycle 1 day 14, low-dose arm).
CCCS(=O)(=O)Nc1ccc(F)c(C(=O)c2c[nH]c3ncc(-c4ccc(Cl)cc4)cc23)c1F — result for “Vmax of saturable absorption”: 3500 kg/µg/h (one-compartment model; tumour-bearing xenograft mouse, plasma; oral).
CCOc1c([C@H](C)n2nc(C)c3c(N)ncnc32)cc(Cl)c(F)c1[C@@H]1CNC(=O)C1 — result for “share of patients”: 0% (refers to: QTcF > 500 ms; previously treated B-cell malignancy; oral, dose not given, all doses, overall population).
For Cc1cc(-c2nccc3c2ccn3CC(=O)Nc2ccc(-c3cnccn3)cn2)ccn1, “subjects with gastrointestinal disorders” read 0% (human; 20 mg once daily, multiple ascending dose).
With O=c1cc(-c2ccc(O)cc2)oc2c([C@@H]3OC[C@H](O)[C@H](O)[C@H]3O)c(O)c([C@@H]3O[C@H](CO)[C@@H](O)[C@H](O)[C@H]3O)c(O)c12 the tissue concentration was 0.23 ng/g (UHPLC-MS/MS; C57BL/6J mouse, spleen; oral, dose not given).
For c1ccc2c(c1)ccc1ccccc12, the log K(PDMS-water) was 3.77 ± 0.02 (fresh water; 12 (unit not given), 20 °C, SSP sampler, 100 µm).
For Fc1ccc([C@@H]2COC[C@H](c3ccc4c(c3)OCCO4)N2)c2ccccc12, the logD was greater than 4.7 (shake-flask, 1-octanol/buffer; pH 7.4).
